Experimental data of several laboratories.
Numbered parts are unrelated; each lists some results of a single study.
Chain of UniProt Q9BWU1 (whole entry, looked up): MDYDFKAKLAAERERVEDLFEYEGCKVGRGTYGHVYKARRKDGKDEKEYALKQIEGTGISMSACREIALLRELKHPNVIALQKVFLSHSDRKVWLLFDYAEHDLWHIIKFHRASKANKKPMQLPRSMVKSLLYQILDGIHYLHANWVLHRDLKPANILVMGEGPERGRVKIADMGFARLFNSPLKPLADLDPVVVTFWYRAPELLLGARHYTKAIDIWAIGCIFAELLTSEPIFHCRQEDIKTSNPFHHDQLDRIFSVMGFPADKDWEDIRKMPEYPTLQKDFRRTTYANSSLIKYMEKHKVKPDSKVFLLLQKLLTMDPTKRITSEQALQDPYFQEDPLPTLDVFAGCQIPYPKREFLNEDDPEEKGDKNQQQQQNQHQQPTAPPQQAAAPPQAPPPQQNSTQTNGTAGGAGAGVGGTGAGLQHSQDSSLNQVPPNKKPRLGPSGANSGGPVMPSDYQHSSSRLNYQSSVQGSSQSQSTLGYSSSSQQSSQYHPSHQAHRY
Chain of UniProt P36894 (whole entry, looked up): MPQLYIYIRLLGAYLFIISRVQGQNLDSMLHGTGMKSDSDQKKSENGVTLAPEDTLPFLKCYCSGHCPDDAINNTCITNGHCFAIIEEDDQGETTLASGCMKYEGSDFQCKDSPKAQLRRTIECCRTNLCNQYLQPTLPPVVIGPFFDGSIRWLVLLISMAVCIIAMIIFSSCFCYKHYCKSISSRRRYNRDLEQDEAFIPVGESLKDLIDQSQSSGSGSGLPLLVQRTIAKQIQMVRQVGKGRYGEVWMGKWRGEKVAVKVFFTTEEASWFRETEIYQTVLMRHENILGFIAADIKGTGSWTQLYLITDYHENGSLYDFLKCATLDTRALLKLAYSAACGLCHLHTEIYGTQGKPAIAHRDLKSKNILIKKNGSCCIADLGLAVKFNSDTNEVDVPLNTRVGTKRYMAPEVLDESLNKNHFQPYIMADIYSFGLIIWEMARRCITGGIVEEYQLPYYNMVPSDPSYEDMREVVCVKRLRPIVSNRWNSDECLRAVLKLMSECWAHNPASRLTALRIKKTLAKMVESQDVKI
Chain of UniProt P07948 (whole entry, looked up): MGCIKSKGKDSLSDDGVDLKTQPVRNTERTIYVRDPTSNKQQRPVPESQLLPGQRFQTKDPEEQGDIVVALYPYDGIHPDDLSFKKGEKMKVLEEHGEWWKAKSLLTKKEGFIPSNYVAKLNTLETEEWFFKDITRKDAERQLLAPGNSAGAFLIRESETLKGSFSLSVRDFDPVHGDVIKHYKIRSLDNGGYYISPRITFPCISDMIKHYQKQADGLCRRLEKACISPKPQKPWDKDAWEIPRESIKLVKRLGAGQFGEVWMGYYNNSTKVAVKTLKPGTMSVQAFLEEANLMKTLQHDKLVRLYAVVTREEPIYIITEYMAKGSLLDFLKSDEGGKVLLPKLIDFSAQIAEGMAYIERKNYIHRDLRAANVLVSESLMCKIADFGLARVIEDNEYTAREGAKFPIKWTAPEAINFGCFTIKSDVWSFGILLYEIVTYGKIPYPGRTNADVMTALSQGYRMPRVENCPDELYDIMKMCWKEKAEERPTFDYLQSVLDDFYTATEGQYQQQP
Chain of UniProt P08922 (whole entry, looked up): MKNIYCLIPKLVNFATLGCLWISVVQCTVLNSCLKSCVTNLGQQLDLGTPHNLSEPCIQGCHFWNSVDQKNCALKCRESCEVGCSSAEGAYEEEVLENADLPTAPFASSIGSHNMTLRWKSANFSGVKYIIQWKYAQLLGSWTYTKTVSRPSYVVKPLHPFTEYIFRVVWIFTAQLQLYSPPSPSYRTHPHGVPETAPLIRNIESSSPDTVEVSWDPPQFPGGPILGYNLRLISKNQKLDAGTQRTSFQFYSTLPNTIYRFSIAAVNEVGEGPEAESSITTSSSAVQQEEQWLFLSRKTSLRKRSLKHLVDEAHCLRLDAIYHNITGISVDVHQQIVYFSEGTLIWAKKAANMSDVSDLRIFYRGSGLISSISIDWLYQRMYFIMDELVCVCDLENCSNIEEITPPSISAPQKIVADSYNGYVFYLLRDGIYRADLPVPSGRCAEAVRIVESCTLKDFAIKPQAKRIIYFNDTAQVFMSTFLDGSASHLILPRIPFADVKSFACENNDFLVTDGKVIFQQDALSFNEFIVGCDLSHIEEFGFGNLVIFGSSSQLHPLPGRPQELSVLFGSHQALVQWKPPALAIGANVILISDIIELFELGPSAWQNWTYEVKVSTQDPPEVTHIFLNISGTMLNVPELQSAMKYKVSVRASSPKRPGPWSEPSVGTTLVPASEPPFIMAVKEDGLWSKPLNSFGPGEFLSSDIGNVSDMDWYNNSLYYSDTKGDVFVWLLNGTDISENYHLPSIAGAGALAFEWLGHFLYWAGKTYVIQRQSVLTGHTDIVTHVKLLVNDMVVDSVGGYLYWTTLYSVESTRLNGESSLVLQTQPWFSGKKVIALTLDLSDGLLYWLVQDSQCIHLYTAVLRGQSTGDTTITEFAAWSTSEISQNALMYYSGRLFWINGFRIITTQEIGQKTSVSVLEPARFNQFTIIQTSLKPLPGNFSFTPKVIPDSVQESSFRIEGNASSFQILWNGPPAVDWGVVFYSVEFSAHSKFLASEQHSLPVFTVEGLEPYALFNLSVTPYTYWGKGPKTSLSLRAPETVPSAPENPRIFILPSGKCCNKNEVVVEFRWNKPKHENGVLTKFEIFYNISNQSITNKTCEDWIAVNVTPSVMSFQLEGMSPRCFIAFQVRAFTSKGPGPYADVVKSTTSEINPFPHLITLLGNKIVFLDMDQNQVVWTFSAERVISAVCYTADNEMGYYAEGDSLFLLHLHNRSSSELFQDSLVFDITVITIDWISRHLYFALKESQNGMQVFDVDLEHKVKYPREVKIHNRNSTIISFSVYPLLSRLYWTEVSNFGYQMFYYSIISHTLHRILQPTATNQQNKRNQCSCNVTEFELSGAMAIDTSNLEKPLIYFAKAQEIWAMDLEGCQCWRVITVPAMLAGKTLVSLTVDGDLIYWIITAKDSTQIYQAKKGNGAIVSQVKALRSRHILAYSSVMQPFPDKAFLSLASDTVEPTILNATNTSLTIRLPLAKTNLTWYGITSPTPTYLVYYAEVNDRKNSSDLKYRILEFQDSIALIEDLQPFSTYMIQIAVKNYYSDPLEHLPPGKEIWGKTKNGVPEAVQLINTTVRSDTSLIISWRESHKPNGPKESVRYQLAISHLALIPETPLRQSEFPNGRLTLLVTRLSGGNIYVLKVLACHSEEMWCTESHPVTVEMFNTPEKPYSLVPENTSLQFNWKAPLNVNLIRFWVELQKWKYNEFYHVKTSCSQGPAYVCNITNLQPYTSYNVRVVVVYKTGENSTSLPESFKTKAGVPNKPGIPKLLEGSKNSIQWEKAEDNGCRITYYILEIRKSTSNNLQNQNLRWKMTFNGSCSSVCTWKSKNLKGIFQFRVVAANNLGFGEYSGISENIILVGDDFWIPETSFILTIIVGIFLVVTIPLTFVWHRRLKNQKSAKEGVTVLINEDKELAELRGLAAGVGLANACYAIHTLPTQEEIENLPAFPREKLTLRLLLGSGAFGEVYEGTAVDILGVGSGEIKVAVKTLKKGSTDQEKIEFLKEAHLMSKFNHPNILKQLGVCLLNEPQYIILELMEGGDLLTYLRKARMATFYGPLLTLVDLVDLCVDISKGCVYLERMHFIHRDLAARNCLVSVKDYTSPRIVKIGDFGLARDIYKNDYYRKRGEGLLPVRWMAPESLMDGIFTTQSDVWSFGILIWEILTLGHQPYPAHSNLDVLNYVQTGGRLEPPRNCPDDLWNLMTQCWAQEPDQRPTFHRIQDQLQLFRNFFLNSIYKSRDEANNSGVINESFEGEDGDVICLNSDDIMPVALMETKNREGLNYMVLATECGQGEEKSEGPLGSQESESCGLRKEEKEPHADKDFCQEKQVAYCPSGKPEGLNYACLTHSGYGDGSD
Chain of UniProt P49760 (whole entry, looked up): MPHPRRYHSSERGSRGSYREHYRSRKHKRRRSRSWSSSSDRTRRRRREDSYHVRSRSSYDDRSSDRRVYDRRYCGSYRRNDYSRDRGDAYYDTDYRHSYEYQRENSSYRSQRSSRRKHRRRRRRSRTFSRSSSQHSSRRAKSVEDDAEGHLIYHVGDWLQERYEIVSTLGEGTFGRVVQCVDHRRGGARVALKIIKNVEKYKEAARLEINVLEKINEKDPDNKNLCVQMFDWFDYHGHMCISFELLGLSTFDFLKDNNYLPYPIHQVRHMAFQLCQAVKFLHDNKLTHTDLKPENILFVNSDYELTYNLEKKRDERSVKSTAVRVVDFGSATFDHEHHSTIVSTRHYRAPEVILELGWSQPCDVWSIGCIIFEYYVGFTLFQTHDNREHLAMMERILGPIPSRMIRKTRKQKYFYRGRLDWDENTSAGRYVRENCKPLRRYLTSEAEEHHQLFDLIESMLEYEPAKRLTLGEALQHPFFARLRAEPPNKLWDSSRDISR
Chain of UniProt P49674 (whole entry, looked up): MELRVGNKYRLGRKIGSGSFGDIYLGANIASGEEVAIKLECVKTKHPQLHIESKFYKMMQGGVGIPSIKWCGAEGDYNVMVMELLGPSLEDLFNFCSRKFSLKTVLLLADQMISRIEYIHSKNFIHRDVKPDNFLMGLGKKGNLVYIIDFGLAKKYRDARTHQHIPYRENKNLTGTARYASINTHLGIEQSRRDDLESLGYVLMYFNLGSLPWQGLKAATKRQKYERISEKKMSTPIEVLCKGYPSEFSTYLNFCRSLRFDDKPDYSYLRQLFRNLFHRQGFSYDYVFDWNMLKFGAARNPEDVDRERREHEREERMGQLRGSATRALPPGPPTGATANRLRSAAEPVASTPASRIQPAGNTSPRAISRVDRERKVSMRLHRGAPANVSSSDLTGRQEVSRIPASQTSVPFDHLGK

Series 1 — species: human; sample: microsomes or S9; concentration: 2 µM; time: 0.5 h
SMILES	remaining compound [%]
COC(=O)c1ccc(C(=O)Nc2cc(F)ccc2NC(C)C)[nH]1	38.6
CCOC(=O)N1CCN(C(=O)C2=C(C)C(=O)OC23CCN(S(=O)(=O)CC)CC3)CC1	> 99
NS(=O)(=O)c1cccc(S(=O)(=O)N2CCCc3c2cccc3S(N)(=O)=O)c1	97.9
COc1ccccc1Nc1cnnc2c(Cl)cccc12	9.01
COc1cc(=O)n(C)cc1C(=O)Nc1nc(-c2ccccn2)cs1	27.6
Oc1ccc(-c2nc(-c3ccc(F)c(F)c3)no2)cc1Cl	58.7

Series 2 — concentration: 0.1 µM
Structure (SMILES): Cn1cc(Cl)c2c(Oc3c(F)cc(Nc4cc(Cl)nc(N)n4)cc3F)ccnc21
target	assay	remaining binding [%]
Tyrosine-protein kinase ABL1, phosphorylated (ABL1, Homo sapiens, UniProt P00519, F317L)	cell-free assay, competition with immobilised ligand	74
ROS1 (Homo sapiens, UniProt P08922)	cell-free assay, competition with immobilised ligand	100
BMPR1A (Homo sapiens, UniProt P36894)	binding, competition with immobilised ligand	95
CDK19 (Homo sapiens, UniProt Q9BWU1)	competition binding	88
SGK1 (Homo sapiens, UniProt O00141)	cell-free assay, competition with immobilised ligand	80
YES1 (Homo sapiens, UniProt P07947)	cell-free assay, competition with immobilised ligand	93
CDC42BPG (Homo sapiens, UniProt Q6DT37)	competition binding	100
LYN (Homo sapiens, UniProt P07948)	cell-free assay, competition with immobilised ligand	99
NEK3 (Homo sapiens, UniProt P51956)	cell-free assay, competition with immobilised ligand	91
Tyrosine-protein kinase ABL1, phosphorylated (ABL1, Homo sapiens, UniProt P00519, Q252H)	cell-free assay, competition with immobilised ligand	94
COQ8B (Homo sapiens, UniProt Q96D53)	cell-free assay, competition with immobilised ligand	89
Myosin-IIIa (MYO3A, Homo sapiens, UniProt Q8NEV4)	binding, competition with immobilised ligand	100
MAP3K10 (Homo sapiens, UniProt Q02779)	cell-free assay, competition with immobilised ligand	100
PLK2 (Homo sapiens, UniProt Q9NYY3)	cell-free assay, competition with immobilised ligand	83
MAP3K9 (Homo sapiens, UniProt P80192)	cell-free assay, competition with immobilised ligand	96

Series 3 — effect on: enzyme activity; action: inhibitor; concentration: 0.5 µM; reference: control
Compound: CCCC(=O)Oc1ccc2[nH]c(C(=O)c3cc4ccccc4[nH]3)cc2c1
target	remaining activity
CLK2 (Homo sapiens, UniProt P49760)	94.3%
TYRO3 (Homo sapiens, UniProt Q06418)	101%
CSNK1E (Homo sapiens, UniProt P49674)	97.4%
CSNK1D (Homo sapiens, UniProt P48730)	96.4%
RPS6KA3 (Homo sapiens, UniProt P51812)	97.5%
PAK6 (Homo sapiens, UniProt Q9NQU5)	94.5%
CAMKK1 (Homo sapiens, UniProt Q8N5S9)	106%
PAK1 (Homo sapiens, UniProt Q13153)	95.8%
SIK2 (Homo sapiens, UniProt Q9H0K1)	97.6%
FLT1 (Homo sapiens, UniProt P17948)	89.7%
MAP3K20 (Homo sapiens, UniProt Q9NYL2)	104%
Cyclin-dependent kinase 2, with cyclin E (CDK2, Homo sapiens, UniProt P24941)	92.1%

Mixed results
Compound	test system	conditions	quantity	result
COC(=O)c1cc(Cl)ccc1N(C)C(=O)c1ccn2ncc(-c3ccc(C(N)=O)cc3)c2c1	female C57BL/6 mouse, plasma	oral, 10 mg/kg, 4 h	concentration	20.7 nM
